{"data": "Published values from different studies", "target": "Voltage-gated inwardly rectifying potassium channel KCNH2 (KCNH2, Homo sapiens, UniProt Q12809)", "note": "Each line is one published result; not all experiments were run side by side. Numbers after ± are the reported error.", "UniProt Q12809, sequence (whole entry, looked up)": "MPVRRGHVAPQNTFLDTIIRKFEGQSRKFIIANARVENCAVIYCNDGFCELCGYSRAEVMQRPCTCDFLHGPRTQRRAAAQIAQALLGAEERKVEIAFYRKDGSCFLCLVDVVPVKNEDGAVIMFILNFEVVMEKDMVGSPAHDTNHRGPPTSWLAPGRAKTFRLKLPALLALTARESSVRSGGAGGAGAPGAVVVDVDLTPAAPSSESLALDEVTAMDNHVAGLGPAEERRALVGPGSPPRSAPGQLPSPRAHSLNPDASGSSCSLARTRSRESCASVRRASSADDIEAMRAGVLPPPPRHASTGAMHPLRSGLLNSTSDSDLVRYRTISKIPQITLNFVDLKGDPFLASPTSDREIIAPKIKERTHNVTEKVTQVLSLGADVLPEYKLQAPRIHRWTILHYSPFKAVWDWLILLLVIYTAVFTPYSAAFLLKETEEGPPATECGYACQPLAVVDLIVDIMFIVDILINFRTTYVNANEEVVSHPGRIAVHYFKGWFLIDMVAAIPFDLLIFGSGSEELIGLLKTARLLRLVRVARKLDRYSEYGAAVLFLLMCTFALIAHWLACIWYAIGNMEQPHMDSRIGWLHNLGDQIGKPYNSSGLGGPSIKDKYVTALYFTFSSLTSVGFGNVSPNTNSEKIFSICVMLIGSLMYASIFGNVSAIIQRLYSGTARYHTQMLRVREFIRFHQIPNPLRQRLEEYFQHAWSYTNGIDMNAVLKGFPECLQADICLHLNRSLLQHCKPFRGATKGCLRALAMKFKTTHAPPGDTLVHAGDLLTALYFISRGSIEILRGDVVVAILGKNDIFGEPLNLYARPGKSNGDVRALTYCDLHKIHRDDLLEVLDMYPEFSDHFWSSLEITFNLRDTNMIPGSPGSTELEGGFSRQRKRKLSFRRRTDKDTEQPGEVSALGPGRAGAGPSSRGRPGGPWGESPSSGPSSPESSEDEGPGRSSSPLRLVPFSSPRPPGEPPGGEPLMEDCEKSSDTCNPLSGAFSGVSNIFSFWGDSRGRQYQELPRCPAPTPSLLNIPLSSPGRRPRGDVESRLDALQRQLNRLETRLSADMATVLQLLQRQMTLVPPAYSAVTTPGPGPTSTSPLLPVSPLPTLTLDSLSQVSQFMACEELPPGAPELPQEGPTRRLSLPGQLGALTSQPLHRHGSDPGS"}
{"Structure (SMILES)": "O=C(O)c1ccc(/C=C2\\SC(=S)N(Cc3cccc(C(F)(F)F)c3)C2=O)cc1", "assay": "ion current, inhibitor, patch clamp", "test system": "CHO", "conditions": "10 µM", "quantity": "inhibition", "result": "-3.94%"}
{"Structure (SMILES)": "c1ccc(OC[C@H]2CN(CCN3CCc4ccccc43)CCO2)nc1", "assay": "potassium current inhibition, inhibitor, PatchXpress electrophysiology", "quantity": "Emax", "result": "64.3 ± 8.8%"}
{"Structure (SMILES)": "CC1(F)CN(C(=O)Cn2c(=O)c(C(=O)NCc3ccc(Cl)cc3)cc3nc(N4CCN(CCN)C4=O)cnc32)C1", "assay": "ion current, inhibitor", "conditions": "40 µM", "quantity": "inhibition", "result": "17.3%"}
{"Structure (SMILES)": "Cc1cc(/C=C/C#N)cc(C)c1Oc1nc(NC2CCN(Cc3ccc(S(C)(=O)=O)cc3)CC2)nc2ncccc12", "assay": "hERG current, manual patch clamp", "test system": "CHO stably expressing hERG", "conditions": "10 µM", "quantity": "inhibition", "result": "88.3%"}
{"Structure (SMILES)": "O=c1[nH]cccc1[C@H](CO)Nc1nc(N2C[C@@H]3C[C@H]2CO3)c2cc(-c3ccccc3)sc2n1", "assay": "ion current, inhibitor", "quantity": "IC50", "result": "> 50 µM"}
{"Structure (SMILES)": "COc1ccc(C#CC2=C[C@H]3C[C@@]4(OC(=O)C=C24)[C@H]2CC[C@H](C(OC)OC)N32)cc1", "assay": "ligand displacement, radioligand", "conditions": "10 µM", "quantity": "inhibition", "result": "28%"}
{"Structure (SMILES)": "CC(=O)N(C)CCN1CCN(c2cnc3c(cc(C(=O)NCc4ccc(Cl)cc4)c(=O)n3CC(=O)N3CC(C)(F)C3)n2)C1=O", "assay": "ion current, inhibitor", "quantity": "Hill slope", "result": 0.98}
{"Structure (SMILES)": "Cc1[nH]nc2c1N=C(c1ccccc1Cl)c1cnc(N3CCOCC3)cc1N2", "conditions": "10 µM", "quantity": "inhibition", "result": "5%"}
{"Structure (SMILES)": "C[N+](C)(CI)CCO", "assay": "ion current, inhibitor, patch clamp", "test system": "HEK293", "conditions": "pH 7.35", "quantity": "IC50", "result": "> 30 µM"}
{"Structure (SMILES)": "CN1CCN(C(=S)N/N=C/c2ccccc2O)CC1", "conditions": "10 µM", "quantity": "inhibition", "result": "14.1 ± 0.92%"}
{"Structure (SMILES)": "CN1CCCN(c2cnc3c(cc(C(=O)NCc4ccc(Cl)cc4)c(=O)n3CC(=O)N3CC(C)(F)C3)n2)C1=O", "assay": "ion current, inhibitor", "quantity": "Hill slope", "result": 1.03}
{"Structure (SMILES)": "O=C1NC2(CC2)COc2ncc(F)cc2[C@H]2COCCN2c2ccn3ncc1c3n2", "assay": "potassium current, whole-cell patch clamp", "test system": "CHO cells expressing hERG", "conditions": "0.49 µM", "quantity": "inhibition", "result": "3.81 ± 1.44%"}
{"Structure (SMILES)": "Cn1ccc2cc(-n3c(=O)[nH]c4sc5c(c4c3=O)CCCC5)ccc21", "assay": "ion current, inhibitor", "conditions": "10 µM", "quantity": "inhibition", "result": "4%"}
{"note": "Excerpt of the above:"}
{"Structure (SMILES)": "c1ccc(OC[C@H]2CN(CCN3CCc4ccccc43)CCO2)nc1", "assay": "potassium current inhibition, inhibitor, PatchXpress electrophysiology", "quantity": "Emax", "result": "64.3 ± 8.8%"}
